Published values pooled from the literature.
Lines come from different studies, so protocols differ. ± gives the spread as reported.
4'-phosphopantetheinyl transferase PptT: 4'-phosphopantetheinyl transferase PptT (Mycobacterium tuberculosis, UniProt O33336)
Sequence of UniProt O33336 (whole entry, looked up): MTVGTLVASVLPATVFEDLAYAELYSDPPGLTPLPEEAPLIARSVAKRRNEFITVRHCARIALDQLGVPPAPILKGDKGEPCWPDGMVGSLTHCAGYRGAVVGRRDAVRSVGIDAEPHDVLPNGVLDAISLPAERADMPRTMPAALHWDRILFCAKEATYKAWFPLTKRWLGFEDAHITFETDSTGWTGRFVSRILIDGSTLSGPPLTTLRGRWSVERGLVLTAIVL
2,3-bisphosphoglycerate-independent phosphoglycerate mutase: 2,3-bisphosphoglycerate-independent phosphoglycerate mutase (Wuchereria bancrofti, UniProt B1P0R4)
gpmI: 2,3-bisphosphoglycerate-independent phosphoglycerate mutase (gpmI, Mycoplasma pneumoniae, UniProt P75167)
Sequence of UniProt P75167 (whole entry, looked up): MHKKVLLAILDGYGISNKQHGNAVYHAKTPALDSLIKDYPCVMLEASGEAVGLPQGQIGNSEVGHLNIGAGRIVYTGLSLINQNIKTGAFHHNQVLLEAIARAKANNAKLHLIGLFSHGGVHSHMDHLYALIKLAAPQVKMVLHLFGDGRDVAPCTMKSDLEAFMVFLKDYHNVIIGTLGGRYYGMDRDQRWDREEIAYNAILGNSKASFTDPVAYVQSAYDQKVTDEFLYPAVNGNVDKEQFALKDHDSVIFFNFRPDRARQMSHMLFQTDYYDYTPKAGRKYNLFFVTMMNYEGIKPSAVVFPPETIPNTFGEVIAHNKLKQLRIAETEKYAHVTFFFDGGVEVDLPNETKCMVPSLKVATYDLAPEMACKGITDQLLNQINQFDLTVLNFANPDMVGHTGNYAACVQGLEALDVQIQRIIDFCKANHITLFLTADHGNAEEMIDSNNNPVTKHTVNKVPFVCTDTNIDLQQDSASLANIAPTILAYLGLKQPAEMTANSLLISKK
Sequence of UniProt P33261 (whole entry, looked up): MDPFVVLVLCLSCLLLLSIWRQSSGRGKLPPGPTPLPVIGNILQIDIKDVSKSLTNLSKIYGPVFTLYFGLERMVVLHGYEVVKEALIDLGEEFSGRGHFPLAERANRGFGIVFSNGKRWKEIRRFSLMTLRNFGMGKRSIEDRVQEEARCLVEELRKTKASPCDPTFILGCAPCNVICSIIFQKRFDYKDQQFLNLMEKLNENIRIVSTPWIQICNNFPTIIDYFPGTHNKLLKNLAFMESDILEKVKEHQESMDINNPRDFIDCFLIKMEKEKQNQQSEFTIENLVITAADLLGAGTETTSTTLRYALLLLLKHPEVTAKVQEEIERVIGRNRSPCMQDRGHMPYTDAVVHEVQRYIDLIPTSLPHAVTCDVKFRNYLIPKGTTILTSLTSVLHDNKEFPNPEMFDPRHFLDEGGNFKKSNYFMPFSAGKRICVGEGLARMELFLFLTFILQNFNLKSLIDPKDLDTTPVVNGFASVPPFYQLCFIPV
Sequence of UniProt P34972 (whole entry, looked up): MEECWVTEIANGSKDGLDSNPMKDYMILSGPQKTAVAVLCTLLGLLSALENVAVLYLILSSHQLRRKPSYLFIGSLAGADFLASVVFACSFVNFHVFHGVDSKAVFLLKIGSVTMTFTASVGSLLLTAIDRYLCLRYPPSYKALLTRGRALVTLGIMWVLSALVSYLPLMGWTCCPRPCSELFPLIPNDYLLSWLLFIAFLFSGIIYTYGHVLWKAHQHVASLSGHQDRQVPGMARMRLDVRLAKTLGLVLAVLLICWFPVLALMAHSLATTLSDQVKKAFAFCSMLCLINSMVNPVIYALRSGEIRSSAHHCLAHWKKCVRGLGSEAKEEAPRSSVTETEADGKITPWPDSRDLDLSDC
Sequence of UniProt P21709 (whole entry, looked up): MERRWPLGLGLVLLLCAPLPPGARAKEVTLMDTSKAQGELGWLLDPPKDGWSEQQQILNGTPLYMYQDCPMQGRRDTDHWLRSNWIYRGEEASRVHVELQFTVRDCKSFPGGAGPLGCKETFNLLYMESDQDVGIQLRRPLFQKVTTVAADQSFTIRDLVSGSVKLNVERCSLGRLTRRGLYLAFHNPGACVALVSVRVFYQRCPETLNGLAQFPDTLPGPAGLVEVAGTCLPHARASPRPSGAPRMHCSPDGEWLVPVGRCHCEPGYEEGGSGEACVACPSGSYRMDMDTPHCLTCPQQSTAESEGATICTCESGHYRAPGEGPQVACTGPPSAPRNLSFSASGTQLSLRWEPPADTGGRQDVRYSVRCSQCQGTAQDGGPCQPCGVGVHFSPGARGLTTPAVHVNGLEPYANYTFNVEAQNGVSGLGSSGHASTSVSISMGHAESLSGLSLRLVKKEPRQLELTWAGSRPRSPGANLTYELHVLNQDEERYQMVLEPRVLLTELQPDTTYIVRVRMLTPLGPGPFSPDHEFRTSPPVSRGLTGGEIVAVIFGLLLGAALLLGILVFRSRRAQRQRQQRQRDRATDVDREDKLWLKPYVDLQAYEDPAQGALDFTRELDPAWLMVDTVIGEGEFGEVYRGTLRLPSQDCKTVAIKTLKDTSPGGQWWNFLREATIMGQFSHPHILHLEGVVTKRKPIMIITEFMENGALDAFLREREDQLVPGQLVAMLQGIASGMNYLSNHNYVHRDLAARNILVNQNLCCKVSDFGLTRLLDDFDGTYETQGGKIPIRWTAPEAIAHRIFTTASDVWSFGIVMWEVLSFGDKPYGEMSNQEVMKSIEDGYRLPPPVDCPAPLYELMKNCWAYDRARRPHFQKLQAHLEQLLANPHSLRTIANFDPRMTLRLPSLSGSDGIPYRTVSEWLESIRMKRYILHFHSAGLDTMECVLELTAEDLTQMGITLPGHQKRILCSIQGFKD
Sequence of UniProt P01902 (whole entry, unmodified, looked up): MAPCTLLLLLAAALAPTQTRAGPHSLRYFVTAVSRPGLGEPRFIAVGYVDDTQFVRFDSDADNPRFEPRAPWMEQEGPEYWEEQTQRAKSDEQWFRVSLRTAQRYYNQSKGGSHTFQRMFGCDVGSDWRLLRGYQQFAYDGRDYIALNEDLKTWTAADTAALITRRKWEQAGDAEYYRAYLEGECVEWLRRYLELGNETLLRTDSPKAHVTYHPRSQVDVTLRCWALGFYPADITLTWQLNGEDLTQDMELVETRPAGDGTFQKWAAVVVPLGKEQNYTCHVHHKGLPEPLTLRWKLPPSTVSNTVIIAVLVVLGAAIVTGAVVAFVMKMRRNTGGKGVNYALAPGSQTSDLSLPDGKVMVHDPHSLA
Sequence of UniProt P21554 (whole entry, looked up): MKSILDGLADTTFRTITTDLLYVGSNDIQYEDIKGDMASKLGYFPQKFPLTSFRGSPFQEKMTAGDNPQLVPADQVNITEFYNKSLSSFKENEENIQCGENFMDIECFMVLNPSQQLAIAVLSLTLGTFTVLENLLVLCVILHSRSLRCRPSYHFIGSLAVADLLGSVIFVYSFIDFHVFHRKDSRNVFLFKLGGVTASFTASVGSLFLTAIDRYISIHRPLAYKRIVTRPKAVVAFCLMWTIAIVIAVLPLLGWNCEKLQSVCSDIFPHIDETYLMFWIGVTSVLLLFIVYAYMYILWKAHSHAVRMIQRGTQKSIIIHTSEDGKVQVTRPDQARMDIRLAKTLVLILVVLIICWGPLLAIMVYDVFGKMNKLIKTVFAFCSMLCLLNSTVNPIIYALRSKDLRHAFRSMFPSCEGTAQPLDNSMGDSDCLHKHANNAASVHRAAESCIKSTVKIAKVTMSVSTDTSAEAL
Sequence of UniProt P41149 (whole entry, looked up): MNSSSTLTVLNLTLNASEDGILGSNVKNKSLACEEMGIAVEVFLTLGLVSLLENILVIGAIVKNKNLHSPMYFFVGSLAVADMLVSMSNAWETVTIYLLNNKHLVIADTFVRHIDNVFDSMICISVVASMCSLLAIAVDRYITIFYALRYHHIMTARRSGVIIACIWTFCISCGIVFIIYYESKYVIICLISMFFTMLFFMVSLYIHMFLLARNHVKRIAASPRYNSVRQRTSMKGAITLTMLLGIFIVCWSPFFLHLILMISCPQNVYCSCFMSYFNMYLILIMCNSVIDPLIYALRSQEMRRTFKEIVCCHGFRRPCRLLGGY
Sequence of UniProt P9WFK7 (whole entry, looked up): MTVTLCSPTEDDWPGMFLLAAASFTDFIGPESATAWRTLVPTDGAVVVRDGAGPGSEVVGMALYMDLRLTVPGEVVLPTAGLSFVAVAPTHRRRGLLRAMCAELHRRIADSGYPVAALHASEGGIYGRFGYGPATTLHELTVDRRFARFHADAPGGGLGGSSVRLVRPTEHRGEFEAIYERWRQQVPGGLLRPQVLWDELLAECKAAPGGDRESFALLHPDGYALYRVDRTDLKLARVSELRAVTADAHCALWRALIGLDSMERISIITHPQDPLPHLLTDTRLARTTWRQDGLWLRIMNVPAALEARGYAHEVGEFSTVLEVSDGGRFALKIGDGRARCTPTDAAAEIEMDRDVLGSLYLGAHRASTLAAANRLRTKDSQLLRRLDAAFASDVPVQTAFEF

Compound	target or system	test	system	setting	endpoint	value
C#CCN(Cc1ccc2nc(N)nc(N)c2c1)c1ccc(C(=O)N[C@@H](CCC(=O)O)C(=O)O)cc1	4'-phosphopantetheinyl transferase PptT	enzyme activity, inhibitor, fluorescence polarization		enzyme 100 nM	IC50	> 25000 nM
C[C@@H](O)[C@@H]1NC(=O)[C@H](CC(=O)O)NC(=O)[C@@H]2CCCN2C(=O)[C@H](Cc2ccc(O)cc2)NC(=O)CSC[C@@H](C(N)=O)NC(=O)[C@H](Cc2c[nH]cn2)NC(=O)[C@H](Cc2c[nH]c3ccccc23)NC(=O)[C@H](CCC(=O)O)NC(=O)[C@H](CC(=O)O)NC(=O)[C@H](Cc2ccc(O)cc2)NC(=O)[C@H](Cc2ccc(O)cc2)NC(=O)[C@H](Cc2c[nH]c3ccccc23)NC(=O)[C@H](Cc2c[nH]c3ccccc23)NC(=O)[C@H](CC(N)=O)NC1=O	2,3-bisphosphoglycerate-independent phosphoglycerate mutase	biochemical			AC50	33100 nM
CC[C@H](C)[C@H](NC(=O)[C@H](CS)NC(=O)[C@H](CC(C)C)NC(=O)[C@H](C)NC(=O)[C@H](CCC(N)=O)NC(=O)[C@H](CC(C)C)NC(=O)[C@H](CCSC)NC(=O)[C@H](Cc1ccc(O)cc1)NC(=O)[C@@H](N)CO)C(=O)N1CCC[C@H]1C(=O)O	H-2 class I histocompatibility antigen, K-D alpha chain, 29 (H2-K1, Mus musculus, UniProt P01902)	binding, competitor, radioligand competition		purified MHC, mutant peptide, with: radiolabeled standard peptide	IC50	67 nM
CC(C)[C@@H]1NC(=O)[C@H](CO)NC(=O)[C@H](Cc2c[nH]c3ccccc23)NC(=O)[C@H](CCC(=O)O)NC(=O)[C@H](CC(=O)O)NC(=O)[C@H](Cc2ccc(O)cc2)NC(=O)[C@H](Cc2ccc(O)cc2)NC(=O)[C@H](Cc2c[nH]c3ccccc23)NC(=O)[C@H](Cc2c[nH]c3ccccc23)NC(=O)[C@H](CC(=O)O)NC(=O)CNC(=O)[C@H](CO)NC(=O)[C@@H](Cc2ccc(O)cc2)NC(=O)CSC[C@@H](C(N)=O)NC(=O)CNC(=O)[C@H](Cc2ccccc2)NC(=O)[C@H](C)NC1=O	gpmI	biochemical			AC50	25700 nM
CCCCCn1cc(C(=O)c2ccc3c(c2)CC(C)(C)C3)c2ccccc21	CNR2 (Homo sapiens, UniProt P34972)	G protein activation, agonist, BRET			EC50	447 nM
CC(C)(C)OC(=O)NCCC[C@H](NC(=O)c1ccc(NCc2ccc3nc(N)nc(N)c3c2Cl)cc1)C(=O)O	4'-phosphopantetheinyl transferase PptT	enzyme activity, inhibitor, fluorescence polarization		enzyme 100 nM	IC50	> 25000 nM
CNC(=O)C1CCN(c2ccccc2NC(=O)c2ccc(-c3cc(O)ccc3C)c(C)n2)CC1	EPHA1 (Homo sapiens, UniProt P21709)	cell-free assay, TR-FRET			Ki	4 nM
Cc1nc(=O)c2cc(CN(C)c3ccc(C(=O)N[C@@H](CCC(=O)O)c4nnn[nH]4)s3)ccc2[nH]1	4'-phosphopantetheinyl transferase PptT	enzyme activity, inhibitor, fluorescence polarization		enzyme 100 nM	IC50	70 nM
CC(C)(C)C1CCc2c(sc3nc(SCCCN4CCCCC4)nc(N)c23)C1 (racemic)	eis (Mycobacterium tuberculosis, UniProt P9WFK7)	inhibitor			IC50	6600 ± 1200 nM
CC(C)[C@@H]1NC(=O)[C@H](CO)N(C)C(=O)[C@H](Cc2c[nH]c3ccccc23)NC(=O)[C@H](CCC(=O)O)NC(=O)[C@H](CC(=O)O)NC(=O)[C@H](Cc2ccc(O)cc2)N(C)C(=O)[C@H](Cc2ccc(O)cc2)NC(=O)[C@H](Cc2c[nH]c3ccccc23)NC(=O)[C@H](Cc2c[nH]c3ccccc23)NC(=O)[C@H](CC(=O)O)NC(=O)CNC(=O)[C@H](CO)NC(=O)[C@@H](Cc2ccc(O)cc2)NC(=O)CSC[C@@H](C(N)=O)NC(=O)CN(C)C(=O)[C@H](Cc2ccccc2)N(C)C(=O)[C@H](C)NC1=O	gpmI	biochemical			AC50	24.5 nM
Cc1nc(=O)c2cc(CN(C)c3ccc(C(=O)NCC(=O)O)s3)ccc2[nH]1	4'-phosphopantetheinyl transferase PptT	enzyme activity, inhibitor, fluorescence polarization		enzyme 100 nM	IC50	210 nM
CCCCCn1cc(C(=O)c2cccc3ccccc23)c2ccccc21	CNR1 (Homo sapiens, UniProt P21554)	β-arrestin recruitment, agonist, BRET			EC50	110 nM
CN1C(=O)[C@H](CCC(=O)O)NC(=O)[C@H](Cc2ccc(O)cc2)NC(=O)[C@H](CCCNC(=N)N)NC(=O)[C@@H](Cc2ccc(O)cc2)NC(=O)CSC[C@@H](C(N)=O)NC(=O)[C@H](CCCCN)NC(=O)[C@@H]2CCCN2C(=O)[C@H](CS)NC(=O)[C@H](CCC(=O)O)NC(=O)[C@H](Cc2ccc(O)cc2)N(C)C(=O)[C@H](CCCCN)NC(=O)[C@H](Cc2ccc(O)cc2)NC(=O)[C@@H]1Cc1ccc(O)cc1	2,3-bisphosphoglycerate-independent phosphoglycerate mutase	biochemical			AC50	1700 nM
CC(=O)N[C@@H](CCCNC(=N)N)C(=O)N[C@@H](CCCNC(=N)N)C(=O)N[C@H](Cc1ccc(I)cc1)C(=O)N[C@@H](C(N)=O)[C@@H](c1ccccc1)c1c[nH]c2ccccc12	Melanocortin receptor 5 (Mus musculus, UniProt P41149)	cAMP, agonist, AlphaScreen			EC50	650 nM
CCCC[C@H]1C(=O)N2CCC[C@H]2C(=O)N[C@H](C(N)=O)CSCC(=O)N[C@@H](Cc2ccc(O)cc2)C(=O)N(C)[C@@H](Cc2ccc(OC)cc2)C(=O)N[C@@H](CCCNC(=N)N)C(=O)N(C)[C@@H](Cc2ccccc2)C(=O)N[C@@H](CC(=O)O)C(=O)N(C)[C@@H](CO)C(=O)N(C)[C@@H](Cc2ccc(O)cc2)C(=O)N[C@@H](CCC(N)=O)C(=O)N[C@@H](CO)C(=O)N(C)[C@@H](CO)C(=O)N(C)[C@@H](Cc2ccc(OC)cc2)C(=O)N[C@@H](C(C)C)C(=O)N(C)[C@@H](Cc2ccc(O)cc2)C(=O)N1C	gpmI	biochemical			AC50	1450 nM
NCCCC[C@H](NC(=O)CNC(=O)CNC(=O)[C@H](CCCCN)NC(=O)CNC(=O)CNC(=O)CNC(=O)[C@H](CCCCN)NC(=O)CNC(=O)CNC(=O)[C@H](CCCCN)NC(=O)CNC(=O)CNC(=O)CNC(=O)[C@H](CCCCN)NC(=O)CNC(=O)CNC(=O)[C@H](CCCCN)NC(=O)CNC(=O)CNC(=O)CNC(=O)[C@H](CCCCN)NC(=O)CNC(=O)CNC(=O)[C@H](CCCCN)NC(=O)[C@H](CO)NC(=O)[C@H](Cc1ccc(O)cc1)NC(=O)CNC(=O)CNC(=O)CN)C(=O)NCC(=O)O		binding, SPR two-state model	rVλ6Wil fibrils	300 nM	kd2	1.5e-05 s⁻¹
CCCCCc1cc(O)c2c(c1)OC(C)(C)C1CCC(C)=CC21 (single isomer, unassigned; (-))	CYP2C19 (Homo sapiens, UniProt P33261)	enzyme activity, inhibitor	human, liver microsomes	pH 7.4	IC50	4200 nM
N=C(N)NCCC[C@@H]1NC(=O)[C@@H](Cc2ccc(O)cc2)NC(=O)CSC[C@@H](C(=O)N2CCC[C@H]2C(=O)N[C@@H](CCCCN)C(=O)N[C@@H](CS)C(N)=O)NC(=O)[C@H](CCC(=O)O)NC(=O)[C@H](Cc2ccc(O)cc2)NC(=O)[C@H](CCCCN)NC(=O)[C@H](Cc2ccc(O)cc2)NC(=O)[C@H](Cc2ccc(O)cc2)NC(=O)[C@H](CCC(=O)O)NC(=O)[C@H](Cc2ccc(O)cc2)NC1=O	2,3-bisphosphoglycerate-independent phosphoglycerate mutase	biochemical			AC50	20400 nM
Cc1nc(=O)c2cc(CN(C)c3ccc(C(=O)N[C@@H](CCc4nn[nH]n4)C(=O)O)s3)ccc2[nH]1	4'-phosphopantetheinyl transferase PptT	enzyme activity, inhibitor, fluorescence polarization		enzyme 100 nM	IC50	180 nM
CC(C)[C@@H]1NC(=O)[C@H](CCCNC(=N)N)NC(=O)[C@H](Cc2ccc(O)cc2)NC(=O)[C@H](CO)NC(=O)[C@H](Cc2ccc(O)cc2)N(C)C(=O)[C@H](CC(N)=O)NC(=O)CNC(=O)[C@H](Cc2ccc(O)cc2)N(C)C(=O)[C@H](Cc2ccccc2)N(C)C(=O)[C@H](CC(=O)O)NC(=O)[C@H](Cc2ccc(O)cc2)NC(=O)[C@H](Cc2ccccc2)N(C)C(=O)[C@H](Cc2ccc(O)cc2)N(C)C(=O)[C@H](Cc2ccc(O)cc2)NC(=O)CSC[C@@H](C(N)=O)NC(=O)[C@@H]2CCCN2C1=O	gpmI	biochemical			AC50	15.8 nM
C[C@H](NC(=O)[C@H](CCC(N)=O)NC(=O)[C@H](C)NC(=O)[C@H](CCCCN)NC(=O)[C@H](CCC(N)=O)NC(=O)[C@H](C)NC(=O)[C@H](CCCCN)NC(=O)[C@H](CCC(N)=O)NC(=O)[C@H](C)NC(=O)[C@H](CCC(N)=O)NC(=O)[C@H](CCCCN)NC(=O)[C@H](C)NC(=O)[C@H](CCC(N)=O)NC(=O)[C@H](CCCCN)NC(=O)[C@H](C)NC(=O)[C@H](CCC(N)=O)NC(=O)[C@H](C)NC(=O)[C@H](CCCCN)NC(=O)[C@H](CCC(N)=O)NC(=O)[C@H](C)NC(=O)[C@H](CCCCN)NC(=O)[C@H](CO)NC(=O)[C@H](Cc1ccc(O)cc1)NC(=O)CNC(=O)CNC(=O)CN)C(=O)N[C@@H](CCCCN)C(=O)N[C@@H](CCC(N)=O)C(=O)N[C@@H](C)C(=O)N[C@@H](CCCCN)C(=O)N[C@@H](CCC(N)=O)C(=O)O		binding, SPR two-state model	rVλ6Wil fibrils	300 nM	kd2	0.0011 s⁻¹
